Published values of several laboratories.
± marks the error that the study gave.

Compound	tested on	assay	system	setting	how to read	measurement	result
Oc1cc(Cl)ccc1Oc1ccc(Cl)cc1Cl	HepG2	nuclear translocation, refers to: NF-κB		24 h		representative mode point of departure	17 µM
CC(C)N1CCC(NC2CCN(c3cccc(-c4cc5cc(F)ccc5[nH]4)c3)CC2)CC1	SR					GI50	0.272 µM
COc1c(C)c2c(c(O)c1C/C=C(\C)CCC(=O)O)C(=O)OC2	pancreas cancer cell lines	cell proliferation		average over lines		IC50	1.51 µM
Fc1ccc([C@@H]2CCNC[C@H]2COc2ccc3c(c2)OCO3)cc1	Plasmodium falciparum		Dd2			IC50	12.6 µM
COc1cc(CCC[P+](c2ccccc2)(c2ccccc2)c2ccccc2)c(OC)c2c1OCO2.[I-]	NCI-H226	SRB				GI50	-5.5 log M
Nc1ncnc2c1ncn2[C@@H]1O[C@@H]2COP(=O)(O)O[C@H]3[C@@H](O)[C@H](n4cnc5c(=O)[nH]cnc54)O[C@@H]3COP(=O)(O)O[C@H]2[C@H]1O	HFF-1	RNA sequencing Reactome analysis, refers to: Reactome R-HSA-9701192 defective HRR (BRCA1 loss)		with: West Nile virus infection	reference: West Nile virus infected cells, upregulated pathway	pathway fold enrichment	7.67
Fc1ccc(C(OCCCc2c[nH]cn2)c2ccc(F)cc2)cc1	Plasmodium falciparum		3D7			IC50	1.26 µM
CN1CCN(C2(CNC3CCN(c4cccc(-c5cc6cc(F)ccc6[nH]5)c4)CC3)CCC2)CC1	IGROV-1					GI50	1.86 µM
O=S(=O)(c1ccc(O)cc1)c1ccc(O)cc1	HepG2 spheroids	Hoechst flow cytometry		10 µM, 96 h		S phase cells	12 ± 7.2%
COc1ccc2c(c1)[nH]c1c(C)nccc12	DU-145	bisulfite pyrosequencing, refers to: RASSF1A promoter CpG site 1		concentration not given	reference: vehicle	methylation reduction	16.6%
COc1c(CCC[P+](c2ccccc2)(c2ccccc2)c2ccccc2)cc2c(c1OC)OCO2.[I-]	SNB-75	SRB				TGI	-5.29 log M
Nc1ncc(-c2nc(N3CCOCC3)nc(N3CCOCC3)n2)c(C(F)F)n1	MG-63			72 h		GI50	0.109 µM
C/C=C(/C)C(=O)O[C@H]1C(C)=C2[C@H]([C@@H]1OC(=O)CCCCCCC)[C@@](C)(OC(C)=O)C[C@H](OC(=O)CCC)[C@@]1(O)[C@H]2OC(=O)[C@@]1(C)O	HEK-293T	RNA-seq GSEA, refers to: Hallmark androgen response		500 nM, 6 h	direction not given	normalized enrichment score	1.86

For quick reference, copied from above:
Compound	tested on	assay	system	setting	how to read	measurement	result
Fc1ccc([C@@H]2CCNC[C@H]2COc2ccc3c(c2)OCO3)cc1	Plasmodium falciparum		Dd2			IC50	12.6 µM
